Results gathered from unrelated publications.
Each numbered part is a random draw from the data of one study; scales do not carry over between parts.
Sequence of UniProt Q6ZWH5 (whole entry, looked up): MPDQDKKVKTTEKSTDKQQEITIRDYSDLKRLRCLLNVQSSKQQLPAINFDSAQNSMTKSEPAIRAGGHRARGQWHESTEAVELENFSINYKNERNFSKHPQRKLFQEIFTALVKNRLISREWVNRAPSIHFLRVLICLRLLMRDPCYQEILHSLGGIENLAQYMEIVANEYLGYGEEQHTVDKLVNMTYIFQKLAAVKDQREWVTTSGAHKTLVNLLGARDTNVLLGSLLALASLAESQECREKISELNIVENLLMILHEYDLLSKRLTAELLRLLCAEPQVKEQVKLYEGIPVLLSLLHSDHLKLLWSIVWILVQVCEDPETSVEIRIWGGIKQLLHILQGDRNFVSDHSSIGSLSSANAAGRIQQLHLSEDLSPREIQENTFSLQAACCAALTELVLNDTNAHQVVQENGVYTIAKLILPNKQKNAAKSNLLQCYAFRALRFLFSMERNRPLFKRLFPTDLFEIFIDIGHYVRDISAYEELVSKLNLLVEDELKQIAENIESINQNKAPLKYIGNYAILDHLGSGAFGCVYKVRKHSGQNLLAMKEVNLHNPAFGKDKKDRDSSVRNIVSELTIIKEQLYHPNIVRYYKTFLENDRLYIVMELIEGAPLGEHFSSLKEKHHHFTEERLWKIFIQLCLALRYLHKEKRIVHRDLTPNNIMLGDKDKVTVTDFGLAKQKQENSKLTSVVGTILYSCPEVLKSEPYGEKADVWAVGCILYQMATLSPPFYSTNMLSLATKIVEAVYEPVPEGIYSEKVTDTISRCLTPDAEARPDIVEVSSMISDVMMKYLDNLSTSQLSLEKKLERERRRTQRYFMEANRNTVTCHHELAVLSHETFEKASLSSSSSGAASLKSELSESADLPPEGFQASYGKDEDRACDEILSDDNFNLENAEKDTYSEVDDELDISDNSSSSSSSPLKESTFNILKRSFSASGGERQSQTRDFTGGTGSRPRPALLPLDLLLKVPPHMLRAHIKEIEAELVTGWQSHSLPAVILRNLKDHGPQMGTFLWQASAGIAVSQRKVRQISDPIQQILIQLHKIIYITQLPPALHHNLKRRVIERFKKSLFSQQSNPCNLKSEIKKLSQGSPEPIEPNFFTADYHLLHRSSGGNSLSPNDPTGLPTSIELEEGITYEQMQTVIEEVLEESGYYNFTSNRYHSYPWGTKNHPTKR
Sequence of UniProt P06239 (whole entry, looked up): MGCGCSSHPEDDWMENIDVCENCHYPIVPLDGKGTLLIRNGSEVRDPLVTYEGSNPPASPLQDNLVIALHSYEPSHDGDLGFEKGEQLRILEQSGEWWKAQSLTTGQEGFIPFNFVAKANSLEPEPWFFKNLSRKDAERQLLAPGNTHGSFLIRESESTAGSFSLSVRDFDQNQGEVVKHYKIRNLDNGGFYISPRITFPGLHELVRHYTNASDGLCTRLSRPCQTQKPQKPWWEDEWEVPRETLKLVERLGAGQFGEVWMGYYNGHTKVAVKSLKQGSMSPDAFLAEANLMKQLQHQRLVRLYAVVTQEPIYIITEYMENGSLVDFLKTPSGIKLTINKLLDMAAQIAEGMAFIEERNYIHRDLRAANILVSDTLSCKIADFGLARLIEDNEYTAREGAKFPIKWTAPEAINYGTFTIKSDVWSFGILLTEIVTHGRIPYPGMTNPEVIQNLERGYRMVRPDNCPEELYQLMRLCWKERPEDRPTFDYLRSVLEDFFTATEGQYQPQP
Sequence of UniProt Q8IW41 (whole entry, looked up): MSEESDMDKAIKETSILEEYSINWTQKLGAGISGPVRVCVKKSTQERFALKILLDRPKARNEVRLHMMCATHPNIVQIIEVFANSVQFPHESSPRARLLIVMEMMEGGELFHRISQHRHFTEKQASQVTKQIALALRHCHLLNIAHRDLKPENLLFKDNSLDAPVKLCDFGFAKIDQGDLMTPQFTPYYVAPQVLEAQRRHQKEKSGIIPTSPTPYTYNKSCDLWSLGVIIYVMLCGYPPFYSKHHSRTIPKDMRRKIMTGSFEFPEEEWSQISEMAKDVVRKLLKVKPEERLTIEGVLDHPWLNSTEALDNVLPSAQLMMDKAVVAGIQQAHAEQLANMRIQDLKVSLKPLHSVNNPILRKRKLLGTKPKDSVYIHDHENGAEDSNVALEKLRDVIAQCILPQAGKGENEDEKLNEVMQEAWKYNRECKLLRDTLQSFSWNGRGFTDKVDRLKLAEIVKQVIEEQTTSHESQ
Sequence of UniProt P52333 (whole entry, looked up): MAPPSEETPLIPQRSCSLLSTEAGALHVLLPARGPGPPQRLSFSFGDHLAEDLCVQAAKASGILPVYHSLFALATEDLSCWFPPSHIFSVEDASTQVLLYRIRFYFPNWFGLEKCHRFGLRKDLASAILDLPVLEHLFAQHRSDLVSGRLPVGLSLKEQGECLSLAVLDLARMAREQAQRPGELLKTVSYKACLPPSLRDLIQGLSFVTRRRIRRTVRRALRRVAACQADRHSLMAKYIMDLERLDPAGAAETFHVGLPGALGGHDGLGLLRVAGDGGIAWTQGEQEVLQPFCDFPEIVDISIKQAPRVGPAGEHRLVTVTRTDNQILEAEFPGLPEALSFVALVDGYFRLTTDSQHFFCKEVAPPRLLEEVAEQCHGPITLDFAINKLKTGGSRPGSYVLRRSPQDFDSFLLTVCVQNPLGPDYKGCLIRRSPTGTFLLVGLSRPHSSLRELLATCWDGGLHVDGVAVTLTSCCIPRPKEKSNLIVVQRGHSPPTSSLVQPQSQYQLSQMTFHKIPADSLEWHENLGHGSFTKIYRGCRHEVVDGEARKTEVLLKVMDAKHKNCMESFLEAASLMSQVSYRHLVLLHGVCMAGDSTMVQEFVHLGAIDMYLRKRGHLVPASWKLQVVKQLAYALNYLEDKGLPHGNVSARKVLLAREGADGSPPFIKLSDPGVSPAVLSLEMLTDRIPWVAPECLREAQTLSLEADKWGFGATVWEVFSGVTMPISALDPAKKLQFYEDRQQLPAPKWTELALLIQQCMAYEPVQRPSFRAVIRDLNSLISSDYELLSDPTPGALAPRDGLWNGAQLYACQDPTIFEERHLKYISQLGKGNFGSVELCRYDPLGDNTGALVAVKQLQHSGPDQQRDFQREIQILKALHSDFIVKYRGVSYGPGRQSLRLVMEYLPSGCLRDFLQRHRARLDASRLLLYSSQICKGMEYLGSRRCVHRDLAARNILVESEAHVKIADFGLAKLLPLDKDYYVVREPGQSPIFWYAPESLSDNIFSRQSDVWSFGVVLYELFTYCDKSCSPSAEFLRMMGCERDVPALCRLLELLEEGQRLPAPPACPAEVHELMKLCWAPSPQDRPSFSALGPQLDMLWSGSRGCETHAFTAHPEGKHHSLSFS
Sequence of UniProt Q96PY6 (whole entry, looked up): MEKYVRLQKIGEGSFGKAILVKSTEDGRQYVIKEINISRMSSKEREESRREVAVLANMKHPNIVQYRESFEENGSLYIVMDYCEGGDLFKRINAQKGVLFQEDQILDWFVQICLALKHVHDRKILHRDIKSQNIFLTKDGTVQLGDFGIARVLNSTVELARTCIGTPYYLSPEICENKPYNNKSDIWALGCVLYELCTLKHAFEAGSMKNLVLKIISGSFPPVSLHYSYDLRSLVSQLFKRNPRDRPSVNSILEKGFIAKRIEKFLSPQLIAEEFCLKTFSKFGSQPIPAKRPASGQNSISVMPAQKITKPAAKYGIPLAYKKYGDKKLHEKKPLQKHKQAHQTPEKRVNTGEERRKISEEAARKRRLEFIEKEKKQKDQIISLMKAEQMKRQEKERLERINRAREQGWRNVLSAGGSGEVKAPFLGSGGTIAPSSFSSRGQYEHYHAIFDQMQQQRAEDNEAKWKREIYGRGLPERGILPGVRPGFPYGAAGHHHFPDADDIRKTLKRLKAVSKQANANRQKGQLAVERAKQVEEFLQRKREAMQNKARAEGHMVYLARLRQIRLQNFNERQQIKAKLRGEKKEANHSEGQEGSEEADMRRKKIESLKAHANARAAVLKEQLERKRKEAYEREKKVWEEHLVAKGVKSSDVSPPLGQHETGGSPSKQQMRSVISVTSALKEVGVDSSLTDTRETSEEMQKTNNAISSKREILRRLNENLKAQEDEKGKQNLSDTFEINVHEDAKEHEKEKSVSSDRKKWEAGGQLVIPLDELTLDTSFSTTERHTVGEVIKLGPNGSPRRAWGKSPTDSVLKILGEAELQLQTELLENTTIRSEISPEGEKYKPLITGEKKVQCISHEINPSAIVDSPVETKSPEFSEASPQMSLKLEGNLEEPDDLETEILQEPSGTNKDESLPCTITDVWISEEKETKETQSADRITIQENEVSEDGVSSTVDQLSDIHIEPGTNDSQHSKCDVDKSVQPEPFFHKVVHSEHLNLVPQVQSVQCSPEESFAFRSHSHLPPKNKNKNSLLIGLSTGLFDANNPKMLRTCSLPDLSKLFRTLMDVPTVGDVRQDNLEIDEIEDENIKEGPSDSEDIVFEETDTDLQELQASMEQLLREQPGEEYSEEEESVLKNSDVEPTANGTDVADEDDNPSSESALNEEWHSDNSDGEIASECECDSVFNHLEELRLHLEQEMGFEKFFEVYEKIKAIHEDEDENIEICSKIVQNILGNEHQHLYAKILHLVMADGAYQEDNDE

Series 1 — method: RNA Bind-n-Seq; molecule type: RNA; medium: in vitro; tested at: 200 nM; setting: whole 134-nt RNA, ends assumed; with: 150 mM KCl; baseline: input library; direction: higher = stronger binding; endpoint: log2 enrichment
Target: Ras GTPase-activating protein-binding protein 1, full length (G3BP1, Homo sapiens, UniProt Q13283)
Sequence of UniProt Q13283 (whole entry, looked up): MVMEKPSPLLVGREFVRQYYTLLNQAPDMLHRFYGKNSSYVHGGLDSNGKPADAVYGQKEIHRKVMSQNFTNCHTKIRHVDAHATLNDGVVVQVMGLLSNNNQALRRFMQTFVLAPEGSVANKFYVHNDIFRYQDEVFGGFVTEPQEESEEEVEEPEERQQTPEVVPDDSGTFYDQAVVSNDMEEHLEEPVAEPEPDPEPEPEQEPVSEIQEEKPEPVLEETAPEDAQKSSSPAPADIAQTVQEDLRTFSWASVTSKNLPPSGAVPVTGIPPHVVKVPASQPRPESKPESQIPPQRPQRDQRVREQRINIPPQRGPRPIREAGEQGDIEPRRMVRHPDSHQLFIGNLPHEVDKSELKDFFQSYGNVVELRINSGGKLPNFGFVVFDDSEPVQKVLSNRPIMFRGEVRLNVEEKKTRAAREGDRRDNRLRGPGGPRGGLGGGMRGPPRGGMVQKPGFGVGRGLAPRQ
Strand = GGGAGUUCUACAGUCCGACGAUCUGUUGAUGCUGUAAUUGCUGAACUUAAAAAGCAGUCUAAACCUGUGACCACCCCUGAAGAAAUUGCACAGGUAAGGACUUAACAUGUUACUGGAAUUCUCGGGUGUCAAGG; result = 1.03
Strand = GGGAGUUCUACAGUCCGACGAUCUAACUUUAGAGGAGGAUCUGAUGGAUAUGGCAGUGGACGUGGAUUUGGGGAUGGCUAUAAUGGGUAUGGAGGAGGACCUGGAGGUCGCAAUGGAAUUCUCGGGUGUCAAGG; result = 0.229
Strand = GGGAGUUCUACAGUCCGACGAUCCCUGUGCUACACAUCGUAUGUACCGAAUCGGGGAAAAAAAGGGGUUUUUUUGGGGUGGGGAAAGUAUUAUGUUACGCCGUUCGGAUCUGCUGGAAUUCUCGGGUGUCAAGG; result = 0.282
Strand = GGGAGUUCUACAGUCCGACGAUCGCAGGAAGUAAAAACAAAUGGAAAUGCUUCUGAUAGUGGCAGGGGUGGGGGUUGCUAAGGAAAGGGUGGGAUGGGAGUGGGUAAAGAGUUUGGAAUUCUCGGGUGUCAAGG; result = 1.13
Strand = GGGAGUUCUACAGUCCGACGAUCUGGCCCUGGUGGCAUGCCGGGAGGAAGAGGUGGCCUCAUGGAUCGUGGUGGUCCCGGUGGAAUGUUCAGAGGUGGCCGUGGUGGAGACAGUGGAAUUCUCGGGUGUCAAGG; result = 0.128
Strand = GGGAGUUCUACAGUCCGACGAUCAAGUCCUGUGCUACACAUCGUAUGUACCGAAUCGGGUUUUUUUGGGUGGGAAAGGGAAAGUAUUAUGUUACGCCGUUCGGAUCUGCACUUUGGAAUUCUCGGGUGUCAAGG; result = 0.075
Strand = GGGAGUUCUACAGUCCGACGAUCAGUCCUGUGCUACACAUCGUAUGUACCGAAUCGGGGUGGGGUUUGGGGAAAAAGGGGAAAGUAUUAUGUUACGCCGUUCGGAUCUGCACUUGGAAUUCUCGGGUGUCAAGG; result = 0.321
Strand = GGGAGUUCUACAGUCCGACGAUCCAAGUCCUGUGCUACACAUCGUAUGUACCGAAUCGGGUGGGUUUGGGAAAAAGGGAAAGUAUUAUGUUACGCCGUUCGGAUCUGCACUUCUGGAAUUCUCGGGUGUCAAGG; result = 0.726

Series 2 — method: protein binding microarray; molecule type: double-stranded DNA, one strand shown; medium: in vitro; tested at: not given; baseline: not given; direction: higher = stronger binding; endpoint: E-score
Target: Histone acetyltransferase KAT6A, winged helix 2, GST fusion (KAT6A, Homo sapiens, UniProt Q92794, residues 85-181)
Setting: 8-mer, flanks averaged, mean of 2 arrays, mostly near background
Construct (chain): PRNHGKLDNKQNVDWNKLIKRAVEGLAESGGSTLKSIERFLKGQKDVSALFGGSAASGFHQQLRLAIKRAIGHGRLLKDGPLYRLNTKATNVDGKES
Strand = ACACTAGT; result = -0.201
Strand = CGCGCTGC; result = 0.11
Strand = GAAAAATC; result = 0.156
Strand = CCGCTCAG; result = 0.00058
Strand = TATCAACA; result = -0.0381
Strand = GATTACGC; result = 0.0508
Strand = TAATAAGA; result = 0.17
Strand = AAGTTCCC; result = -0.143

Series 3 — Compound: O=C1C(Cl)=C(N2C(=O)CCC2=O)C(=O)c2ccccc21; observed: enzyme activity; mode: inhibitor; tested at: 0.5 µM; baseline: control; endpoint: remaining activity
target = Tyrosine-protein kinase JAK3 (JAK3, Homo sapiens, UniProt P52333); result = 101%
target = Tyrosine-protein kinase Lck (LCK, Homo sapiens, UniProt P06239); result = 106%
target = Fibroblast growth factor receptor 1 (FGFR1, Homo sapiens, UniProt P11362); result = 99.5%
target = Ephrin type-A receptor 3 (EPHA3, Homo sapiens, UniProt P29320); result = 105%
target = Angiopoietin-1 receptor (TEK, Homo sapiens, UniProt Q02763); result = 96.7%
target = Mitogen-activated protein kinase kinase kinase 5 (MAP3K5, Homo sapiens, UniProt Q99683); result = 99.1%
target = Activin receptor type-1B (ACVR1B, Homo sapiens, UniProt P36896); result = 106%
target = Fibroblast growth factor receptor 3 (FGFR3, Homo sapiens, UniProt P22607); result = 106%
target = Mitogen-activated protein kinase kinase kinase 14 (MAP3K14, Homo sapiens, UniProt Q99558); result = 102%
target = Ribosomal protein S6 kinase alpha-2 (RPS6KA2, Homo sapiens, UniProt Q15349); result = 104%
target = Casein kinase I isoform gamma-3 (CSNK1G3, Homo sapiens, UniProt Q9Y6M4); result = 93.5%
target = Serine/threonine-protein kinase Nek1 (NEK1, Homo sapiens, UniProt Q96PY6); result = 90%

Series 4 — method: competition with immobilised ligand; tested at: 1 µM; endpoint: remaining binding
Structure (SMILES): O=C(N[C@H]1CCCCC/C=C\C2C[C@@]2(C(=O)O)NC(=O)[C@@H]2C[C@@H](Oc3ccncc3)CN2C1=O)OC1CCCC1 (stereo partly drawn)
target = ALK tyrosine kinase receptor (ALK, Homo sapiens, UniProt Q9UM73, C1156Y); test = cell-free assay; result = 100%
target = Serine/threonine-protein kinase Nek10 (NEK10, Homo sapiens, UniProt Q6ZWH5); test = binding; result = 81%
target = Mitogen-activated protein kinase kinase kinase 1 (MAP3K1, Homo sapiens, UniProt Q13233); test = binding; result = 84%
target = MAP kinase-activated protein kinase 5 (MAPKAPK5, Homo sapiens, UniProt Q8IW41); test = binding; result = 96%
target = Serine/threonine-protein kinase LATS2 (LATS2, Homo sapiens, UniProt Q9NRM7); test = binding; result = 100%
